Assay results gathered from unrelated publications.
Protocols differ between the studies behind these lines. ± marks the error that the study gave.

SMILES | test | test system | setting | scale | quantity | value
N=C(N)NCCC[C@@H]1NC(=O)[C@H](CCCCNC(=O)CNC(=O)CNC(=O)CNC(=O)CC[C@H](NC(=O)CNC(=O)CNC(=O)CNC(=O)CN2CCN(CC(=O)O)CCN(CC(=O)O)CCN(CC(=O)O)CC2)C(=O)NCC(=O)NCC(=O)NCC(=O)NCCCC[C@@H]2NC(=O)[C@@H](Cc3ccccc3)NC(=O)[C@H](CC(=O)O)NC(=O)CNC(=O)[C@H](CCCNC(=N)N)NC2=O)NC(=O)[C@@H](Cc2ccccc2)NC(=O)[C@H](CC(=O)O)NC(=O)CNC1=O [indium-111 labelled] |  | female athymic nu/nu mice, blood | intravenous, 0.5 h |  | tissue uptake | 0.87 ± 0.13 %ID/g
CCCC[C@H](NC(=O)COCCOCCNC(=O)CN1CCN(CC(=O)O)CCN(CC(=O)O)CC1)C(=O)N[C@H]1CC(=O)NCCCC[C@@H](C(N)=O)NC(=O)[C@H](Cc2c[nH]c3ccccc23)NC(=O)[C@H](CCCNC(=N)N)NC(=O)[C@@H](Cc2ccccc2)NC(=O)[C@H](Cc2c[nH]cn2)NC1=O [copper-64 labelled] |  | C57 mice, lung | intravenous, 0.37 MBq, 2 h |  | tissue uptake | 0.7 ± 0.04 %ID/g
COc1ccc2cc([C@H](C)C(=O)N[C@H](Cc3ccccc3)C(=O)N[C@H](Cc3ccccc3)C(=O)N[C@H](CCCCN)C(=O)N[C@H](Cc3ccc(O)cc3)C(=O)O)ccc2c1 | TEM | hydrogel 0.8 wt% |  |  | nanofiber width | 10 ± 2 nm
CCCC[C@H](NC(=O)CCCCCCCNC(=O)CN1CCN(CC(=O)O)CCN(CC(=O)O)CC1)C(=O)N[C@H]1CC(=O)NCCCC[C@@H](C(N)=O)NC(=O)[C@H](Cc2c[nH]c3ccccc23)NC(=O)[C@H](CCCNC(=N)N)NC(=O)[C@@H](Cc2ccccc2)NC(=O)[C@H](Cc2c[nH]cn2)NC1=O [copper-64 labelled] |  | C57 mice, spleen | intravenous, 0.37 MBq, 2 h |  | tissue uptake | 0.17 ± 0.12 %ID/g
Cc1cc(-c2ccc(NC(=O)[C@H](CCCCNC(=O)CCN3C(=O)CC(SCCC(=O)N[C@H](Cc4ccccc4)C(=O)N[C@H]4CSSC[C@@H](C(=O)N[C@H](C(=O)O)[C@@H](C)O)NC(=O)[C@H]([C@@H](C)O)NC(=O)[C@H](CCCCN)NC(=O)[C@@H](Cc5c[nH]c6ccccc56)NC(=O)[C@H](Cc5ccc(O)cc5)NC4=O)C3=O)NC(=O)CN3CCN(CC(=O)O)CCN(CC(=O)O)CCN(CC(=O)O)CC3)c(C)c2)ccc1N=Nc1ccc2c(S(=O)(=O)O)cc(S(=O)(=O)O)c(N)c2c1O (stereo partly drawn) [gallium-68 labelled] | radio-HPLC | glutathione solution and urine | 2 h |  | radiochemical purity | decreased
CC(C)C[C@@H](NC(=O)[C@@H](CC(C)C)NC(=O)[C@@H](CC(=O)O)NC(=O)[C@@H](CC(C)C)NC(=O)[C@@H](CC(C)C)NC(=O)[C@@H](CC(C)C)NC(=O)[C@H](NC(=O)[C@@H](CC(=O)O)NC(=O)[C@H](NC(=O)[C@H]1CCCN1C(=O)[C@@H](Cc1ccccc1)NC(=O)[C@@H](CC(C)C)NC(=O)[C@@H](CC(C)C)NC(=O)[C@@H](CC(=O)O)NC(=O)[C@@H](CC(C)C)NC(=O)[C@@H](Cc1ccc(O)cc1)NC(=O)[C@@H](C)NC(=O)[C@@H](CCCNC(=N)N)NC(=O)[C@@H](Cc1c[nH]c2ccccc12)NC(=O)[C@H]1CCCN1C(=O)[C@@H](CC(N)=O)NC(=O)[C@@H](CCC(N)=O)NC(=O)[C@@H](CC(=O)O)NC(=O)[C@@H](CC(=O)O)NC(=O)[C@@H](CSC1CC(=O)N(CCNC(=O)CN2CCN(CC(=O)O)CCN(CC(=O)O)CC2)C1=O)NC(=O)[C@@H](C)N)[C@H](C)O)[C@H](C)O)C(=O)N[C@H](Cc1c[nH]c2ccccc12)C(=O)O (stereo partly drawn) [copper-64 labelled] |  | male nude mice, LNCaP xenograft | intravenous, 4 h | baseline: tumour over muscle | tumour-to-muscle ratio | 6 ± 2
CCCC[C@H](NC(=O)CNC(=O)CNC(=O)CN1CCN(CC(=O)O)CCN(CC(=O)O)CCN(CC(=O)O)CC1)C(=O)N[C@H]1CC(=O)NCCCC[C@@H](C(N)=O)NC(=O)[C@H](Cc2c[nH]c3ccccc23)NC(=O)[C@H](CCCNC(=N)N)NC(=O)[C@@H](Cc2ccccc2)NC(=O)[C@H](Cc2c[nH]cn2)NC1=O [lutetium-177 labelled] |  | C57 mouse, female, whole blood | intravenous, 0.037 MBq, 24 h |  | tissue uptake | 0.23 ± 0.41 %ID/g
C[C@H](NC(=O)CNC(=O)[C@H](CCC(=O)O)NC(=O)[C@H](CCC(=O)O)NC(=O)[C@H](CC(=O)O)NC(=O)[C@@H]1CCCN1C(=O)[C@H](Cc1ccccc1)NC(=O)[C@H](CS)NC(=O)[C@H](Cc1ccc(O)cc1)NC(=O)CCCNC(=O)CNC(=O)CNC(=O)[C@@H](C)NC(=O)CN)C(=O)N[C@@H](CS)C(=O)N[C@@H](Cc1ccc(O)cc1)C(N)=O [technetium-99m labelled] | paper chromatography | sealed vial | 0 h, room temperature |  | radiochemical purity | 97.39 ± 0.23%
N=C(N)NCCC[C@@H]1NC(=O)[C@H](CCCCNC(=O)CNC(=O)CNC(=O)CNC(=O)CC[C@H](NC(=O)CNC(=O)CNC(=O)CNC(=O)CC[C@H](NC(=O)CN2CCN(CC(=O)O)CCN(CC(=O)O)CCN(CC(=O)O)CC2)C(=O)NCC(=O)NCC(=O)NCC(=O)N[C@@H](CCC(=O)NCC(=O)NCC(=O)NCC(=O)NCCCC[C@@H]2NC(=O)[C@@H](Cc3ccccc3)NC(=O)[C@H](CC(=O)O)NC(=O)CNC(=O)[C@H](CCCNC(=N)N)NC2=O)C(=O)NCC(=O)NCC(=O)NCC(=O)NCCCC[C@@H]2NC(=O)[C@@H](Cc3ccccc3)NC(=O)[C@H](CC(=O)O)NC(=O)CNC(=O)[C@H](CCCNC(=N)N)NC2=O)C(=O)NCC(=O)NCC(=O)NCC(=O)NCCCC[C@@H]2NC(=O)[C@@H](Cc3ccccc3)NC(=O)[C@H](CC(=O)O)NC(=O)CNC(=O)[C@H](CCCNC(=N)N)NC2=O)NC(=O)[C@@H](Cc2ccccc2)NC(=O)[C@H](CC(=O)O)NC(=O)CNC1=O [indium-111 labelled] |  | female athymic nu/nu mice, spleen | intravenous, 111 kBq, 24 h |  | tissue uptake | 1.96 ± 0.31 %ID/g
Cc1cc(-c2ccc(NC(=O)[C@H](CCCCNC(=O)CCOCCOCCC(=O)N[C@H](Cc3ccccc3)C(=O)N[C@H]3CSSC[C@@H](C(=O)N[C@H](C(=O)O)[C@@H](C)O)NC(=O)[C@H]([C@@H](C)O)NC(=O)[C@H](CCCCN)NC(=O)[C@@H](Cc4c[nH]c5ccccc45)NC(=O)[C@H](Cc4ccc(O)cc4)NC3=O)NC(=O)CN3CCN(CC(=O)O)CCN(CC(=O)O)CCN(CC(=O)O)CC3)c(C)c2)ccc1N=Nc1ccc2c(S(=O)(=O)O)cc(S(=O)(=O)O)c(N)c2c1O [lutetium-177 labelled] |  | human metastatic neuroendocrine tumour | dose not given |  | grade 1-2 haematologic adverse events | 58%
N=C(N)NCCC[C@@H]1NC(=O)[C@H](CCCCNC(=O)CC[C@H](NC(=O)CC[C@H](NC(=O)CN2CCN(CC(=O)O)CCN(CC(=O)O)CCN(CC(=O)O)CC2)C(=O)N[C@@H](CCC(=O)NCCCC[C@@H]2NC(=O)[C@@H](Cc3ccccc3)NC(=O)[C@H](CC(=O)O)NC(=O)CNC(=O)[C@H](CCCNC(=N)N)NC2=O)C(=O)NCCCC[C@@H]2NC(=O)[C@@H](Cc3ccccc3)NC(=O)[C@H](CC(=O)O)NC(=O)CNC(=O)[C@H](CCCNC(=N)N)NC2=O)C(=O)NCCCC[C@@H]2NC(=O)[C@@H](Cc3ccccc3)NC(=O)[C@H](CC(=O)O)NC(=O)CNC(=O)[C@H](CCCNC(=N)N)NC2=O)NC(=O)[C@@H](Cc2ccccc2)NC(=O)[C@H](CC(=O)O)NC(=O)CNC1=O [indium-111 labelled] |  | female athymic nu/nu mice, U87MG tumour | intravenous, 111 kBq, 4 h |  | tissue uptake | 7.32 ± 2.66 %ID/g
COc1ccc2cc([C@H](C)C(=O)NCCCC[C@@H](NC(=O)[C@@H](Cc3ccccc3)NC(=O)[C@H](N)Cc3ccccc3)C(=O)N[C@H](Cc3ccc(O)cc3)C(=O)O)ccc2c1 | TEM | hydrogel 0.8 wt% |  |  | nanofiber width | 7 ± 2 nm

Repeated from above:
SMILES | test | test system | setting | scale | quantity | value
CCCC[C@H](NC(=O)CNC(=O)CNC(=O)CN1CCN(CC(=O)O)CCN(CC(=O)O)CCN(CC(=O)O)CC1)C(=O)N[C@H]1CC(=O)NCCCC[C@@H](C(N)=O)NC(=O)[C@H](Cc2c[nH]c3ccccc23)NC(=O)[C@H](CCCNC(=N)N)NC(=O)[C@@H](Cc2ccccc2)NC(=O)[C@H](Cc2c[nH]cn2)NC1=O [lutetium-177 labelled] |  | C57 mouse, female, whole blood | intravenous, 0.037 MBq, 24 h |  | tissue uptake | 0.23 ± 0.41 %ID/g
